Assay results pooled from the literature.
Protocols differ between the studies behind these lines. Values joined by “and” are separate records of one study, mostly repeats; a detail may differ. Numbers after ± are the reported error.

COc1ccccc1-c1n[nH]c2nc(N[C@H]3CC[C@H](NS(=O)(=O)CC(C)C)CC3)ncc12 — relative abundance (bead binding, competition bead pull-down, refers to: LINJ.35.5300; Leishmania donovani extract; 10 µM; relative to: vehicle): 0.97
Cc1ccc(S(=O)(=O)N2CC2C(=O)N(C)C)cc1 (stereo not shown) — tumour growth inhibition (mouse, Lewis lung carcinoma; intraperitoneal, 170 mg/kg, 16 doses, day 14): 41%
COc1cccc(OCCN2CCC[C@H](CN3CCc4cc(OC)c(OC)cc4CC3=O)C2)c1 — time in interaction zone, target present (C57BL/6J mouse, male, stress-naive; intraperitoneal, 5 mg/kg, 14 d post-dose; relative to: before dosing): no effect
O=C(O)c1ccc(-c2nc(-c3ccccc3Cl)c3sccn23)cc1 — platelet count change (C57BL/6 mice; dose not given, day 11, basal hematopoiesis): 81.6% and 89.8% and 97% and 116%
O=C(NCc1cc(F)cc(F)c1)[C@@]1(O)CCN(c2ccc3[nH]ccc3c2)C1=O — median survival time (sample H PDX mouse; dose not given, RTV endpoint 500%): 24 days
CC(C)[C@H](NC(=O)[C@H](CCCNC(=N)N)NC(=O)[C@@H]1CCCN1C(=O)[C@@H](NC(=O)[C@H](C)NC(=O)[C@H](Cc1ccc(O)cc1)NC(=O)[C@H](CCC(N)=O)NC(=O)[C@H](CCCCN)NC(=O)[C@H](CCCNC(=N)N)NC(=O)[C@@H]1CCCN1C(=O)[C@H](CCC(=O)O)NC(=O)[C@@H](NC(=O)[C@H](C)N)[C@@H](C)O)[C@@H](C)O)C(=O)N[C@@H](Cc1ccccc1)C(=O)N[C@@H](Cc1c[nH]c2ccccc12)C(=O)N[C@H](C(=O)N[C@@H](CC(=O)O)C(=O)N[C@@H](C)C(=O)N1CCC[C@H]1C(=O)NCC(=O)NCCOCCOCCOCCOCCOCCOCCOCCOCCOCCOCCOCCOCCC(=O)N[C@@H](CS)C(N)=O)[C@@H](C)O — number of cell lines (phage binding; panel of 11 cancer lines; selectivity at least 20): 3
COc1ccccc1-c1n[nH]c2nc(NC3CCN(C(=O)Cc4ccc(F)cc4F)CC3)ncc12 — relative abundance (bead binding, competition bead pull-down, refers to: LINJ.35.3750; Leishmania donovani extract; 10 µM; relative to: vehicle): 1.15
CCCCCC1=C(NCC)C(=O)C(C/C=C(\C)CCC=C(C)C)=C(O)C1=O — log2 fold change (RNA-Seq, refers to: Ifit3 mRNA; mice, AAV9-A53T α-synuclein lesion, lesioned striatum; oral, dose not given; relative to: vehicle-treated lesioned mice): 1.13
O=c1n(CCNCCOS(=O)(=O)c2ccccc2)c(=O)n(S(=O)(=O)c2ccccc2)c(=O)n1S(=O)(=O)c1ccccc1 — inhibition (DPPH scavenging; 500 µg/mL): 53.7%
CCN(Cc1ccccc1)C(=O)CCc1nc(CN2CCN(C(=O)Cc3ccc(OC)c(OC)c3)CC2)no1 — action potential threshold (current clamp; DRG neurons, naive rat; 3 µM): -4.87 ± 1.65 mV
O=C(Cc1ccc(Cl)c(Cl)c1)N1CCN(Cc2ccccc2)[C@@H]2COC[C@H](N3CCCC3)[C@H]21 (single isomer, unassigned) — serum prolactin (antagonist; male C57BL/6 mice, serum; 3 mg/kg, 15 min, KOR target engagement, added: KOR agonist 30 mg/kg): inhibited
Cc1cc(NC(=O)C(=O)N2C[C@@H](C)CC[C@@H]2c2ccc3scnc3c2)cnc1N — median survival extension (mouse, U-87 MG MTAP-null orthotopic glioblastoma; 120 mg/kg twice daily): 53 days
CCc1nnc(-c2c(OC)cc(-c3cnc4cc(-c5cnn(C)c5)ccn34)cc2OC)o1 — trabecular bone volume fraction (histomorphometry; male C57BL/6J mouse, tibia; oral gavage, 10 mg/kg once daily, 3 wk): 15.2 ± 1.37%
